Experimental data from different studies.
Organism: Leishmania amazonensis

C/C(=C\c1ccco1)[N+](=O)[O-]  IC50 (parasite growth; 72 h, promastigote): 2.2 µM
CC(C)(C)CC(C)(C)Nc1c(-c2ccc3c(c2)OCO3)nc2ncccn12  IC50 (fluorimetry; peritoneal macrophages, RFP; 72 h, intracellular amastigotes): > 100 µM
COC(=O)Cn1c2ccc([N+](=O)[O-])cc2c(=O)n1Cc1ccccc1  IC50 (parasite growth, resazurin; 72 h, promastigote): 0.6 µM
O=[N+]([O-])/C(Br)=C/c1ccco1  IC50 (parasite growth; 72 h, promastigote): 2.9 µM
CCOC(=O)c1csc(NN=Cc2ccccc2[N+](=O)[O-])n1  IC50 (parasite growth; 72 h, promastigote): 359 µM
N#C/C=C/C(=O)Oc1cccc(F)c1  IC50 (parasite growth, resazurin; 72 h, promastigote): 28.4 µM
CCOC(=O)c1csc(NN=Cc2ccccc2O)n1  IC50 (parasite growth; 72 h, promastigote): 485 µM
CC(C)(C)c1ccc(OC(=O)/C=C/C#N)cc1  IC50 (parasite growth, resazurin; mouse Macrophage; 24 h, intracellular, amastigote): 67.2 µM
NCCCn1c2ccc([N+](=O)[O-])cc2c(=O)n1Cc1ccccc1  IC50 (parasite growth, resazurin; 72 h, promastigote): 1.3 µM
COc1ccc(OC(=O)/C=C/C#N)cc1  IC50 (parasite growth, resazurin; 72 h, promastigote): 27.1 µM
Cn1c2ccc([N+](=O)[O-])cc2c(=O)n1Cc1ccccc1  IC50 (parasite growth, resazurin; 72 h, promastigote): 2 µM
